{"data": "Results gathered from unrelated publications", "note": "Parts stem from different laboratories: compare values within a part only."}
{"data": "Set 1", "target": "Sal-like protein 4, full length isoform A (SALL4, Homo sapiens, UniProt Q9UJQ4, residues 1-1053)", "method": "universal PBM", "form": "double-stranded DNA, one strand shown", "sample": "in vitro", "tested at": "600 nM", "setting": "8-mer, flanks averaged, mean of replicates", "reading": "higher = stronger binding", "sequence of UniProt Q9UJQ4 (whole entry, looked up)": "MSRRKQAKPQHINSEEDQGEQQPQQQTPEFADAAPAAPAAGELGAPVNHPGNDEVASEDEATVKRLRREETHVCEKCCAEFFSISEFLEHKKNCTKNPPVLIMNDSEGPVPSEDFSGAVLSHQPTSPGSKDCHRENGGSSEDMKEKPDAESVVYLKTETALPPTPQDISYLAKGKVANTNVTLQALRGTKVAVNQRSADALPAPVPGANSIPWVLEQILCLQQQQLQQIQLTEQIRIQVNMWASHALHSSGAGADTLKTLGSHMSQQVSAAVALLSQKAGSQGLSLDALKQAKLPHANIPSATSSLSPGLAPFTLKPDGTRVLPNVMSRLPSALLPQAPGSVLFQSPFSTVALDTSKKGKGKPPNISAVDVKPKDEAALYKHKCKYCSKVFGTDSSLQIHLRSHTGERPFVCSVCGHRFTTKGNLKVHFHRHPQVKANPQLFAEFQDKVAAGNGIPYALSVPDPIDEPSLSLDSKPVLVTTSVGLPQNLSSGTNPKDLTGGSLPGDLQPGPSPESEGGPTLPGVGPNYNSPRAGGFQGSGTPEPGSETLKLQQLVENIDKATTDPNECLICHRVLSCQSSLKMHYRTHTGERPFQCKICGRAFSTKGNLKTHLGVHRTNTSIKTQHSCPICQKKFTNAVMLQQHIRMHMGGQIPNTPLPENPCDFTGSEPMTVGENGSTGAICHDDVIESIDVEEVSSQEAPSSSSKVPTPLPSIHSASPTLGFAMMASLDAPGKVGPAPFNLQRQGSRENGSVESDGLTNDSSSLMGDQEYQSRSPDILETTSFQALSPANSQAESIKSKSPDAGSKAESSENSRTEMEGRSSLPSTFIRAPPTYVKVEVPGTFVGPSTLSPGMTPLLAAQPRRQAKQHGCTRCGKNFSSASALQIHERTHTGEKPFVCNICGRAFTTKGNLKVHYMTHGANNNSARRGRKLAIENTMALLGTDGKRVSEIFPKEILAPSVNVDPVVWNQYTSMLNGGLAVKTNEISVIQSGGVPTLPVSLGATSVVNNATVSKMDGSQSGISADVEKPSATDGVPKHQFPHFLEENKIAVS"}
{"Oligonucleotide": "TCAGGTCA", "E-score": -0.071}
{"Oligonucleotide": "AGCTGTCG", "E-score": -0.114}
{"Oligonucleotide": "AAGCAGGT", "E-score": -0.0348}
{"Oligonucleotide": "CAGACCAG", "E-score": -0.184}
{"Oligonucleotide": "TAGCAGGA", "E-score": -0.108}
{"Oligonucleotide": "ACGCTACA", "E-score": 0.0293}
{"Oligonucleotide": "CAGGCTAC", "E-score": -0.134}
{"Oligonucleotide": "GGAAGATA", "E-score": 0.182}
{"Oligonucleotide": "AGTCATAG", "E-score": 0.168}
{"Oligonucleotide": "AAGTCTGA", "E-score": -0.00451}
{"Oligonucleotide": "CTCAGTTA", "E-score": 0.0586}
{"Oligonucleotide": "CCCTATAG", "E-score": 0.0517}
{"Oligonucleotide": "CTGGGCCC", "E-score": -0.426}
{"Oligonucleotide": "TAACCTTA", "E-score": 0.161}
{"Oligonucleotide": "CAAGTGGA", "E-score": -0.00851}
{"Oligonucleotide": "CCTTCAAC", "E-score": 0.00396}
{"Oligonucleotide": "CAAGAATC", "E-score": 0.123}
{"Oligonucleotide": "ATCTTGGC", "E-score": -0.0231}
{"Oligonucleotide": "AACGCTAT", "E-score": 0.125}
{"Oligonucleotide": "CCCATCTA", "E-score": 0.0249}
{"Oligonucleotide": "CGCCTTGA", "E-score": -0.264}
{"Oligonucleotide": "CAGCTCCG", "E-score": -0.209}
{"Oligonucleotide": "GCATAAAC", "E-score": 0.251}
{"Oligonucleotide": "AAGAGGAT", "E-score": 0.0508}
{"Oligonucleotide": "CACTAAAA", "E-score": 0.118}
{"data": "Set 2", "target": "RNA binding protein fox-1 homolog 2, RRM domain, GST-SBP tag (RBFOX2, Homo sapiens, UniProt O43251-10, residues 100-194)", "method": "RNA Bind-n-Seq", "form": "RNA", "sample": "in vitro", "tested at": "365 nM", "setting": "natural RNA segment, single round, ends assumed", "baseline": "no-protein control", "reading": "higher = stronger binding", "constant ends, left off below": "GGGAGUUCUACAGUCCGACGAUC … UGGAAUUCUCGGGUGCCAA", "Target sequence (chain)": "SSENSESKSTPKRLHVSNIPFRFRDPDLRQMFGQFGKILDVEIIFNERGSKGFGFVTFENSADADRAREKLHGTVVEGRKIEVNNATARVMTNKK"}
{"Oligonucleotide": "CUAUCCUGUUAAUUUAAUUUUUAAAUGCUUUAUCCAUUUGUGCAAAGGUAAACGCAGAUUGUAUCUUUUUUAAUGGUACGGCAUAAAAAGUAACCCUCAAGUGAAGUGUC", "RBNS enrichment (R)": 0.464}
{"Oligonucleotide": "UUGUUGAGAAGCUUCUGUUUUAAGGAAUUUCUCCUUCUUGUCUCAUUCCUGCCUUUCCUGGGAAGGGCCUGGCCCUGAUCUAGAGUCUUAGCUAAGGAGCUGAGAAACAG", "RBNS enrichment (R)": 0.297}
{"Oligonucleotide": "UCCCGUGGCUUUGCUUGAUCUGUUGUUGCUUCUCCUCAUCAAGACUUUGCAUCAUGUUAGCCAGCCAGUAUUUACUCAUUGUUAGGAAAAUCGAGCUGUGGCUGAAGACC", "RBNS enrichment (R)": 0.626}
{"Oligonucleotide": "GGCCCCCUUUGCCACGUCCCCUUAGCUUAGUGAUCAGGUGUGAGAGUGGCCAUUUCCUUACCUUUGAUCCCUGUAAAGCAGAAAGGACUCCUUUGACAGGCGACAAACUA", "RBNS enrichment (R)": 0.438}
{"Oligonucleotide": "ACUUUCUAGAUCAGAAAAAUUAUACACUACAGUUGAAGAGCUGAAUUCUACUAUGGAUGGAUGUUGUGAGCCCUUGCUUGGAAGCCUUCACCGUCUAGCUUCCCCAGGGU", "RBNS enrichment (R)": 0.446}
{"Oligonucleotide": "ACAAAUGUAUUUUCAGUGAGUCUGAGUCGGGUGUAUGUGGGUUUUUUGGUUCUUGGCUUGGGGCUUUUUGUUGUUGUUGUUCUUAAUAAUAUGAGAAUCCAGUUCUCAUG", "RBNS enrichment (R)": 1.94}
{"Oligonucleotide": "CCUCCACAGGGUUCCUGUGUUUCACAUUUACGAUAUAAAUUGAUACCCAUCUUCAGCUGAGGUUGUUAUGGGGGGCUGGAAUCACGUGUUUUUUAAACCUGAUAUUUUCA", "RBNS enrichment (R)": 0.267}
{"Oligonucleotide": "UGAAAUUUAAAAAUAAAUGAAGGAAUAUAGAGAUGGCACAGGGUUCCAGCUUGUUGUGUUUAUAAAUCAUAAAGUCAUGAUAUACCUUCUACAGACAUAGCAUUUUUUCA", "RBNS enrichment (R)": 1.63}
{"Oligonucleotide": "CAGACUAUGUACAUAAUCUGUAUAUGGGAAAAGAAAGAGCGAAAUUACCUUACUUAAGGAUAAUAGGACAAGACAAAUUACAGAUUGUCUCAGAGAAAACAAAUGAGUUA", "RBNS enrichment (R)": 0.347}
{"Oligonucleotide": "UAGUUUCUUAAUUAUCUAACUCACACGAGGGUAAGUUUUUUGUUGGUUUCUUUUUUGGAGUCCUGAGUUCAAAGGGGACAGAACUAAGGGCAGGAGAAGAGAAUGGAUGU", "RBNS enrichment (R)": 1.88}
{"Oligonucleotide": "UGAUUCCCCUCCUUUGACUUCUGCCUAGAAGCUUGGGUGCAAAGGGUUUCUUGCAUCUGAUCUUUCUACCACAACCACACCUGUCGUCCACUCUUCUGACUUGGUUUCUC", "RBNS enrichment (R)": 0.722}
{"Oligonucleotide": "ACUGCCCACAUCAUACCUUUUCUUAAUGAAGCCCUGGCACUUUAUAGCAGAGUUCAUGAAACCACAGCUCUUCCAAGCCAUGUACAUAGUUCAUGCUCAGCCCUGAACUC", "RBNS enrichment (R)": 0.502}
{"data": "Set 3", "target": "Centromere-binding protein 1, full length, His-tagged (CBF1, Saccharomyces cerevisiae, UniProt P17106, residues 1-351)", "method": "competition protein-binding microarray", "form": "double-stranded DNA, one strand shown", "sample": "in vitro", "tested at": "2 µM", "setting": "whole 60-bp probe, lowest competitor level", "together with": "Pho4 competitor, 0.05 µM", "reading": "higher = stronger binding", "constant ends, left off below": "… GTCTTGATTCGCTTGACGCTGCTG", "sequence of UniProt P17106 (whole entry, looked up)": "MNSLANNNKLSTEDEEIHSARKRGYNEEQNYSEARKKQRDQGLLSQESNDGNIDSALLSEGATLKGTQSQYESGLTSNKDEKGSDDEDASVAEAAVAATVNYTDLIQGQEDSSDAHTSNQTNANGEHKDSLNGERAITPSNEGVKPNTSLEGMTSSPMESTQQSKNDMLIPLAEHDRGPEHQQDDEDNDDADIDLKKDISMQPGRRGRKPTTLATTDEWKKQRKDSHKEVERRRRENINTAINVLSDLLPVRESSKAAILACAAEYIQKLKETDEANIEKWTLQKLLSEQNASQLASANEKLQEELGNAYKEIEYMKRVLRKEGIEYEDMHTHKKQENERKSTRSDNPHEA"}
{"Oligonucleotide": "ATCATGTTCAGAACAACCGTGATGGAGAAAATGGAG", "fluorescence intensity [a.u.]": 125}
{"Oligonucleotide": "ACCATACACTATCAAGCAATATTATACTTGTTCTTT", "fluorescence intensity [a.u.]": 81.7}
{"Oligonucleotide": "CTTCTTCAGGGTTTGCACGTTGCCTTCATTCGGTTC", "fluorescence intensity [a.u.]": 89.9}
{"Oligonucleotide": "CGGGGTTAAGTTTGATGCGTGGGTGGCTTGCAGCAG", "fluorescence intensity [a.u.]": 89.3}
{"Oligonucleotide": "TGTAATAGTTGCCATCACGTCGACAGCTTCAATGTT", "fluorescence intensity [a.u.]": 109}
{"Oligonucleotide": "GCATCAGATTCTTGTCATGCTTGTTCAATATACATC", "fluorescence intensity [a.u.]": 124}
{"Oligonucleotide": "CGGGGTTAAGTTTGTCACTTTACTTGCTTGCAGCAG", "fluorescence intensity [a.u.]": 60.1}
{"Oligonucleotide": "CTTCTGTAAATTTGAGCGGTGGGTGGACGCGCCCCG", "fluorescence intensity [a.u.]": 80.5}
{"Oligonucleotide": "GGTTTTTGAAATCATACCTGCCAAGCTTGCTGCACT", "fluorescence intensity [a.u.]": 80.6}
{"Oligonucleotide": "TGAAAATTAGACTGTCATGTGATGAGTAATATCGTC", "fluorescence intensity [a.u.]": 2680}
{"Oligonucleotide": "CAGTATCATCGTCATTGGTAGTATTCACTAGGGGAC", "fluorescence intensity [a.u.]": 80.2}
{"Oligonucleotide": "TTTAGGCCGCAGTGGGTCGTGCCAGACGGCAGCGAT", "fluorescence intensity [a.u.]": 57.1}
{"Oligonucleotide": "ATGAAACCTAAGTCCCACGTGTCGGTTAAATGGCCA", "fluorescence intensity [a.u.]": 1150}
{"Oligonucleotide": "AGATGATACTGTTTGCACGCAAATATAGGCTTGATT", "fluorescence intensity [a.u.]": 78.5}
{"Oligonucleotide": "TGCGCAACAACTTGTCACCTGACTTTATGTCTAGAA", "fluorescence intensity [a.u.]": 1810}
{"Oligonucleotide": "TGTCGTCTCGGTTTTCACGTTGCTAATCGAACGATC", "fluorescence intensity [a.u.]": 90.8}
{"Oligonucleotide": "AAAGCGGTAATTTTTCACGTGGGATCAAATATCTAT", "fluorescence intensity [a.u.]": 1150}
{"Oligonucleotide": "GTCTTGTCTCATTGTCACAACACTTTCCCCACTTCA", "fluorescence intensity [a.u.]": 117}
{"Oligonucleotide": "AGTGGTTGCGTTTGCCACGTACGAAAAGTTGTTACC", "fluorescence intensity [a.u.]": 73.3}
{"Oligonucleotide": "CCAGGGCCAGGGACTCACGTGTGAAGGTCTGCAGCC", "fluorescence intensity [a.u.]": 495}
{"Oligonucleotide": "TTGCCGTTGCAAGTGAACGTGCAAATGTATTTATAT", "fluorescence intensity [a.u.]": 116}
{"Oligonucleotide": "CTAACGAAGGTTTGGGCTGTGGGTGACAAGCCAAGT", "fluorescence intensity [a.u.]": 74.4}
{"Oligonucleotide": "GTCAAACTCCAAAGACACGTGCTCCCCTCGGCACCA", "fluorescence intensity [a.u.]": 1470}
{"Oligonucleotide": "CTTCTGTAAATTTGACACGTGTTTTGACGCGCCCCG", "fluorescence intensity [a.u.]": 1670}
{"Oligonucleotide": "CTAACGAAGGTTTGTCACTCGACTTACAAGCCAAGT", "fluorescence intensity [a.u.]": 63.3}
{"data": "Set 4", "target": "Interferon regulatory factor 5, full length, phosphomimetic (IRF5, Homo sapiens, UniProt Q13568-2, residues 1-514, S451D/S453D/S456D/S462D)", "method": "protein-binding microarray", "form": "double-stranded DNA, one strand shown", "sample": "in vitro", "tested at": "940 nM top", "setting": "60-bp whole probe", "together with": "salmon DNA 0.4 mg/ml", "baseline": "random background probes", "reading": "higher = stronger binding", "constant ends, left off below": "GCCTAGCAC … GTCTTGATTCGCTTGACGCTGCTG"}
{"Oligonucleotide": "TGAGGTTTCGGTATCGGTTAGTGCTAG", "fitted relative affinity [z-score]": 12.8}
{"Oligonucleotide": "TTAGATATCGGGTTTCGATTCGTGCTA", "fitted relative affinity [z-score]": 4.7}
{"Oligonucleotide": "TTTTATTTATAAATTATCTTGTGCTAG", "fitted relative affinity [z-score]": 0.366}
{"Oligonucleotide": "TTAGATTTCCTTCTCCTTTAGTGCTAG", "fitted relative affinity [z-score]": 0.952}
{"Oligonucleotide": "TTAGGTATCTGGACTGGGTTAGTGCTA", "fitted relative affinity [z-score]": 0.39}
{"Oligonucleotide": "TTAGGTCTCCTAATCCTTTAGTGCTAG", "fitted relative affinity [z-score]": 0.228}
{"Oligonucleotide": "TCACCTTCCCCTCTAGGACTGTGCTAG", "fitted relative affinity [z-score]": 0.434}
{"Oligonucleotide": "TCATTTTCATATATATAACTGTGCTAG", "fitted relative affinity [z-score]": 1.4}
{"Oligonucleotide": "TTAGGTTTCGGGTTTCAGTTAGTGCTA", "fitted relative affinity [z-score]": 10.4}
{"Oligonucleotide": "TCACAGCTATTTTTAGGACTGTGCTAG", "fitted relative affinity [z-score]": 0.0221}
{"Oligonucleotide": "TTAGAACTGAGACTAGATTAGTGCTAG", "fitted relative affinity [z-score]": -0.396}
{"Oligonucleotide": "TTCGGTATCCTTATCCTTTAGTGCTAG", "fitted relative affinity [z-score]": 0.776}
{"Oligonucleotide": "CATTGCTTGTGTTTATTGTGGTGCTAG", "fitted relative affinity [z-score]": 0.692}
{"Oligonucleotide": "GACGGACTGGACATTCGGGACGTGCTA", "fitted relative affinity [z-score]": -0.685}
{"Oligonucleotide": "TCAGATATTAAACTGATACTGTGCTAG", "fitted relative affinity [z-score]": -0.257}
{"Oligonucleotide": "GACGGTATCGGTATAGGGACGTGCTAG", "fitted relative affinity [z-score]": 8.33}
{"Oligonucleotide": "TGAGATTCCAGTTTCGATTAGTGCTAG", "fitted relative affinity [z-score]": 8.24}
{"Oligonucleotide": "TCATACATCTATGTAGAACTGTGCTAG", "fitted relative affinity [z-score]": 0.0346}
{"Oligonucleotide": "CACTCTTTCCTCACCATACTGTGCTAG", "fitted relative affinity [z-score]": 1.79}
{"Oligonucleotide": "TCAGTAATGCTTCTGTAACTGTGCTAG", "fitted relative affinity [z-score]": 0.221}
{"Oligonucleotide": "GACGGTCTCGGTCTGGGGACGTGCTAG", "fitted relative affinity [z-score]": 3.33}
{"Oligonucleotide": "GACGATTTCGGGTATCGAGATGTGCTA", "fitted relative affinity [z-score]": 1.4}
{"Oligonucleotide": "TCATGAACCATTTTGGTACTGTGCTAG", "fitted relative affinity [z-score]": -0.292}
{"Oligonucleotide": "GACGGTCTCGGTTTTGGGACGTGCTAG", "fitted relative affinity [z-score]": 3.93}
{"Oligonucleotide": "TCCTGTGTCTTAAATAGGGCAGTGCTA", "fitted relative affinity [z-score]": -0.129}
